Assay results gathered from unrelated publications.
Parts stem from different laboratories: compare values within a part only. Several values in a cell are separate wells, animals, samples, runs or records.
Chain of UniProt P15735 (whole entry, looked up): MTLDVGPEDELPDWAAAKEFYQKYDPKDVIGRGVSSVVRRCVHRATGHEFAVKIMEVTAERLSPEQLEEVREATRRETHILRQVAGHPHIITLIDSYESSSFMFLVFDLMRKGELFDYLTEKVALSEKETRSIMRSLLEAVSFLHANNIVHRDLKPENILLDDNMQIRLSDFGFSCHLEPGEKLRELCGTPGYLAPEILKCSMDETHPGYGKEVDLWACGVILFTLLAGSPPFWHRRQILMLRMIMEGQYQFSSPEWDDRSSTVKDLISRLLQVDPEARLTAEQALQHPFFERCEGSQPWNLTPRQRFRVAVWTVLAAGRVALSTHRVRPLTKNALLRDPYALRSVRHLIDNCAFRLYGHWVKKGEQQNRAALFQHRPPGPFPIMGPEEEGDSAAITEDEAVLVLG
Chain of UniProt P29320 (whole entry, looked up): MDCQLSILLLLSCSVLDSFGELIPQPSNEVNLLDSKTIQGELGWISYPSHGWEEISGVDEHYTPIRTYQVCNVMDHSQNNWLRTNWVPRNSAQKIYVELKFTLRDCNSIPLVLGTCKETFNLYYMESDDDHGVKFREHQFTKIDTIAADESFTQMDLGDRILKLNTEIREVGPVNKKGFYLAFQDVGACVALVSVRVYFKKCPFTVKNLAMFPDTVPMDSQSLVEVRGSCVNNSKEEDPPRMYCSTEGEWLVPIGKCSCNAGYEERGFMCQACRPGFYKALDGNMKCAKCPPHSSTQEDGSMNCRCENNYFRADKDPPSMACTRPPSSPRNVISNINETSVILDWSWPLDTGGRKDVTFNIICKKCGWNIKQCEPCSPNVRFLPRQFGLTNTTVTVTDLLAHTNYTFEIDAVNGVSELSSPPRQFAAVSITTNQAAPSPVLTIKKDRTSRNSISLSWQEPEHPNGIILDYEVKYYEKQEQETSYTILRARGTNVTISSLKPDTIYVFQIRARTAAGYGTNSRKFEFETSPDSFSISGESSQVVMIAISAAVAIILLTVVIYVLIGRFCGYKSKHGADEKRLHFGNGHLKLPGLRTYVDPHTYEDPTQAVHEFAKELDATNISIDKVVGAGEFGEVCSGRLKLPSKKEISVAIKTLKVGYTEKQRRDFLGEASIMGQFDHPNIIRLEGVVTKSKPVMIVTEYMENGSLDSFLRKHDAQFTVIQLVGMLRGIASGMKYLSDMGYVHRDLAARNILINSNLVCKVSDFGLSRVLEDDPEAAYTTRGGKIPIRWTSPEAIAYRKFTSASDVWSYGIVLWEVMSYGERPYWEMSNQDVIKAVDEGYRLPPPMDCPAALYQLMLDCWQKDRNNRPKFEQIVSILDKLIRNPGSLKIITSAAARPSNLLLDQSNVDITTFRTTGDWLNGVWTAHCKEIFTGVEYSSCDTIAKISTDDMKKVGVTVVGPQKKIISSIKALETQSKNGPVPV
Chain of UniProt Q15303 (whole entry, looked up): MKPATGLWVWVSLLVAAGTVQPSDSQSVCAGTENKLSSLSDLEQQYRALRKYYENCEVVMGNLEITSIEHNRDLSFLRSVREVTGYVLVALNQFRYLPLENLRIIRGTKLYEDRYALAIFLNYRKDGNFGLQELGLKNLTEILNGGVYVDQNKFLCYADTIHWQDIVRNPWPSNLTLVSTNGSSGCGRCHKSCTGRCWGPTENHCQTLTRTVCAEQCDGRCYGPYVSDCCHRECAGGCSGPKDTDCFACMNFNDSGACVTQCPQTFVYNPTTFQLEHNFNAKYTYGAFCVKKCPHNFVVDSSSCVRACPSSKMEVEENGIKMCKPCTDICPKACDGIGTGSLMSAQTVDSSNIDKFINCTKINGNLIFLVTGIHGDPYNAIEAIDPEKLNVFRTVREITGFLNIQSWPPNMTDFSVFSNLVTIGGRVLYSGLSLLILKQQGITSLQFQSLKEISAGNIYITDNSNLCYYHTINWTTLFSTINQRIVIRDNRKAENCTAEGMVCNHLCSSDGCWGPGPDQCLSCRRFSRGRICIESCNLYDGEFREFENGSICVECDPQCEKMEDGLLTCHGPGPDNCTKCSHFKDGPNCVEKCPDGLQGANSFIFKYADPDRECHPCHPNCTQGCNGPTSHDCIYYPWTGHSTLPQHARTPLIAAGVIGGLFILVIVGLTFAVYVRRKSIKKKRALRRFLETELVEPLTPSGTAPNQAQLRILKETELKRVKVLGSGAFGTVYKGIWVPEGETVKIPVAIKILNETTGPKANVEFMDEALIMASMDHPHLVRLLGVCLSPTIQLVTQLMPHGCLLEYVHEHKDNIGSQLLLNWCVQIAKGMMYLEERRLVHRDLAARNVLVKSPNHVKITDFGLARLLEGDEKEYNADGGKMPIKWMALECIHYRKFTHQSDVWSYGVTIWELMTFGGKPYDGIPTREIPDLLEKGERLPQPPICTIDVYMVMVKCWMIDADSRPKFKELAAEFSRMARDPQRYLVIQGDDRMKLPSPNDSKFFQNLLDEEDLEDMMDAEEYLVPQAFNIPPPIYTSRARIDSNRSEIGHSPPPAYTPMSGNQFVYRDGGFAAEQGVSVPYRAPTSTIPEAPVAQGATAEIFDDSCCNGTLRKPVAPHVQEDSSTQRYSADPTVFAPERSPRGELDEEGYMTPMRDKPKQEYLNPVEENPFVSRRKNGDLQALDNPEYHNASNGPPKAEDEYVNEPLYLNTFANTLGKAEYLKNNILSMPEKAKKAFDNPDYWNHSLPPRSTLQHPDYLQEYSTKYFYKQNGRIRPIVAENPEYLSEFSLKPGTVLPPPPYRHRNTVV
Chain of UniProt P21127 (whole entry, looked up): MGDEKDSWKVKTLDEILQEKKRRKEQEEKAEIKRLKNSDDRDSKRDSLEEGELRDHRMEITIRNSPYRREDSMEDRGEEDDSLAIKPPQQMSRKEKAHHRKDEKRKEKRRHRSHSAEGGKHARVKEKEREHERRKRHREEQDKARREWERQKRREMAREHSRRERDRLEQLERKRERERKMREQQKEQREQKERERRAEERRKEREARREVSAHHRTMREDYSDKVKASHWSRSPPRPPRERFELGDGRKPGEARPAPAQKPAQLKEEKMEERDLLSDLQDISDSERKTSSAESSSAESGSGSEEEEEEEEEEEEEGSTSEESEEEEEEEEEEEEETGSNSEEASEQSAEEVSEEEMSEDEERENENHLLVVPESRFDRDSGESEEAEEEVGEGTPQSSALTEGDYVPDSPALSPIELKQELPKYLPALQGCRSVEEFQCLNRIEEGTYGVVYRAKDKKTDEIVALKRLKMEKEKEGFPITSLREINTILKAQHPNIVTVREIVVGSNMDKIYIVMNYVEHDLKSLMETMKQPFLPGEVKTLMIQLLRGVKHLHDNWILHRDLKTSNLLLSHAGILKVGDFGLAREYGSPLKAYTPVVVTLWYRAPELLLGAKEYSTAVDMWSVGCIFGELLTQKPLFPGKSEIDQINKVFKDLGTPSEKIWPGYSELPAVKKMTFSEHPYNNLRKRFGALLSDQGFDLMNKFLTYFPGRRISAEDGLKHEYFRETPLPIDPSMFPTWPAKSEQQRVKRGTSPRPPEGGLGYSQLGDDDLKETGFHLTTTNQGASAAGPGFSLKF

Set 1 — tested at: 1 µM
SMILES: CCC1(c2cccc(-c3cn(C)nc3C)c2)C2=C(Nc3n[nH]cc31)C(F)C(C)(C)CC2=O (single isomer, unassigned)
target	test	how to read	remaining binding
PIM1 (Homo sapiens, UniProt P11309)	kinase binding, KINOMEscan	baseline: DMSO control	100%
HIPK3 (Homo sapiens, UniProt Q9H422)	kinase binding, KINOMEscan	baseline: DMSO control	81%
MST1R (Homo sapiens, UniProt Q04912)	binding, competition with immobilised ligand		68%
CAMK2A (Homo sapiens, UniProt Q9UQM7)	kinase binding, KINOMEscan	baseline: DMSO control	100%
EGFR (Homo sapiens, UniProt P00533, del752-759)	binding, competition with immobilised ligand		99%
NTRK3 (Homo sapiens, UniProt Q16288)	binding, competition with immobilised ligand		77%
DYRK2 (Homo sapiens, UniProt Q92630)	kinase binding, KINOMEscan	baseline: DMSO control	82%
ERBB4 (Homo sapiens, UniProt Q15303)	binding, competition with immobilised ligand		100%
PIK3CA (Homo sapiens, UniProt P42336, M1043I)	binding, competition with immobilised ligand		94%
EIF2AK1 (Homo sapiens, UniProt Q9BQI3)	kinase binding, KINOMEscan	baseline: DMSO control	100%
CAMK2G (Homo sapiens, UniProt Q13555)	kinase binding, KINOMEscan	baseline: DMSO control	100%
CDK11B (Homo sapiens, UniProt P21127)	binding, competition with immobilised ligand		100%
BRAF (Homo sapiens, UniProt P15056, V600E)	kinase binding, KINOMEscan	baseline: DMSO control	100%
MAPK4 (Homo sapiens, UniProt P31152)	binding, competition with immobilised ligand		100%
IGF1R (Homo sapiens, UniProt P08069)	binding, competition with immobilised ligand		92%
EPHA3 (Homo sapiens, UniProt P29320)	binding, competition with immobilised ligand		88%
PHKG2 (Homo sapiens, UniProt P15735)	binding, competition with immobilised ligand		100%
Macrophage colony-stimulating factor 1 receptor, autoinhibited (CSF1R, Homo sapiens, UniProt P07333)	kinase binding, KINOMEscan	baseline: DMSO control	93%
Ribosomal protein S6 kinase alpha-3, C-terminal kinase domain (RPS6KA3, Homo sapiens, UniProt P51812)	binding, competition with immobilised ligand		59%
KIT (Homo sapiens, UniProt P10721, A829P)	binding, competition with immobilised ligand		97%

Set 2 — cell line: U-87 MG; tested at: concentration not given; baseline: DMSO
SMILES: CCN1/C(=C/C=C2\CCCC(/C=C/C3=[N+](CC)c4ccccc4C3(C)C)=C2NCCCCCCCCN2CCC(Nc3nc4ccccc4n3Cc3ccc(F)cc3)CC2)C(C)(C)c2ccccc21
test	log2 fold change
refers to: HSPBAP1 mRNA	1.32
refers to: SERAC1 mRNA	1.19
refers to: ACP3 mRNA	-1.92
refers to: MAZ	-1.07
refers to: PALM2AKAP2 mRNA	1.02
refers to: KLHL11 mRNA	1.18
refers to: TGIF1 mRNA	1.43
refers to: CAB39L mRNA	1.34
refers to: ZNF503 mRNA	-1.11
refers to: ARL15 mRNA	0.983
refers to: RHOBTB1 mRNA	-1.35
refers to: MFSD3 mRNA	-0.837
refers to: ANKRD35 mRNA	-1.62
refers to: SHCBP1 mRNA	-2.19
refers to: HSPH1 mRNA	1.28
refers to: PCDH7 mRNA	-1.92

Set 3 — read-out: thermal unfolding; method: differential scanning fluorimetry; tested at: 5.5 µM; direction: higher = more unfolded
Compound: C[C@@H]1CN(c2ccc(-c3cc(C(=O)NCCOCCOCCOCCOCCNC(=O)Cn4cc(-c5[nH]cc(C(=O)N[C@@H](CC(N)=O)c6ccc(F)c(Cl)c6)c5-c5ccc(Cl)cc5F)cn4)ccc3F)cc2NC(=O)c2c[nH]c(=O)cc2C(F)(F)F)C[C@H](C)N1C
WDR5: WD repeat-containing protein 5 (WDR5, Homo sapiens, UniProt P61964)
DCAF1: DDB1- and CUL4-associated factor 1 (DCAF1, Homo sapiens, UniProt Q9Y4B6)
Chain of UniProt Q9Y4B6 (whole entry, looked up): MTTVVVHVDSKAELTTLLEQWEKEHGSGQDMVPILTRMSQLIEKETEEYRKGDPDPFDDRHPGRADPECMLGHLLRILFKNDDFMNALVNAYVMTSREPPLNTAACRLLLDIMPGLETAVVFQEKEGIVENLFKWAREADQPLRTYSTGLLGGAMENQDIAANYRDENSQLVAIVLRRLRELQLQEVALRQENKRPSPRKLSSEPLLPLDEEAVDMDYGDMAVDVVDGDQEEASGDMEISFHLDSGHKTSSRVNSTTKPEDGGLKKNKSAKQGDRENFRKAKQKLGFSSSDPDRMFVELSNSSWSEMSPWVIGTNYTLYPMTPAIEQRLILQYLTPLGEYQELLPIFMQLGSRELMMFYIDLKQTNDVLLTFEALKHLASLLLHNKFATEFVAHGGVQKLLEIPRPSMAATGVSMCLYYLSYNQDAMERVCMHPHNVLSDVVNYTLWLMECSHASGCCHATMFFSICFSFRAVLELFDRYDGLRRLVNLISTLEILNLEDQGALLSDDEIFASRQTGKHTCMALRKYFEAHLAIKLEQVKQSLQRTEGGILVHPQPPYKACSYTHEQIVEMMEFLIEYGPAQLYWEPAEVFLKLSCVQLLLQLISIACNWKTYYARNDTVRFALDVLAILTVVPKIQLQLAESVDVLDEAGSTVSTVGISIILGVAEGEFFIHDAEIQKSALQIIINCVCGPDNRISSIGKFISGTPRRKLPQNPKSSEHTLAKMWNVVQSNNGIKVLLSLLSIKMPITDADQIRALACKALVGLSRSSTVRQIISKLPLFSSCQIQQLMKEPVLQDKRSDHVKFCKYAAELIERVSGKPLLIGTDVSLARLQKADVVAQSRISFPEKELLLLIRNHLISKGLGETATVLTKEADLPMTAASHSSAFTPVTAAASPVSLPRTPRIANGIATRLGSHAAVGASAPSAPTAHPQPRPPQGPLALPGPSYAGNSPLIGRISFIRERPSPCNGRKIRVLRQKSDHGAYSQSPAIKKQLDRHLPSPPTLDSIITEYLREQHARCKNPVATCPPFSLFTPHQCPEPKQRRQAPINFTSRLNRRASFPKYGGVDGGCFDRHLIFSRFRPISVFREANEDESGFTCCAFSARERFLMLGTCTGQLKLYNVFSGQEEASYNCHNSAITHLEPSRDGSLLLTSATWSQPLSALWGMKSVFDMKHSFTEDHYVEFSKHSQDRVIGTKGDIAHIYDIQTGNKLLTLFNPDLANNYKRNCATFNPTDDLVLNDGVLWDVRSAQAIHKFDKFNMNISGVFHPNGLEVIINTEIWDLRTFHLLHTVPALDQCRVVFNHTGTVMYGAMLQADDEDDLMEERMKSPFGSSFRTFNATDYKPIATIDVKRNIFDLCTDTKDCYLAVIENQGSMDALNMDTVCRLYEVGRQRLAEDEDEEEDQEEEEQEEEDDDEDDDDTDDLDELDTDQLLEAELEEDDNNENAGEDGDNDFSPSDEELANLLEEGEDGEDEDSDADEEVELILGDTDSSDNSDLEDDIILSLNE
target	setting	SYPRO Orange fluorescence [a.u.]
WDR5	48.4 °C	14500
WDR5	59.21 °C	10800
WDR5	28.4 °C	14900
DCAF1	75.21 °C	49000
WDR5	47.4 °C	14400
WDR5	74.01 °C	9550
DCAF1	68.61 °C	55700
WDR5	81.01 °C	26600
WDR5	62.41 °C	9090
DCAF1	86.41 °C	38400
DCAF1	55.81 °C	21300

Set 4 — read-out: cell growth or viability; method: ATP luminescence; time: 6 days
SMILES: Cc1ncsc1-c1ccc(C(CO)NC(=O)C2CC(O)CN2C(=O)C(C(C)C)n2cc(-c3ccc(COc4c(-c5c(C)c(F)cc6[nH]ncc56)c(C5CC5)cc5c(N6CC7CC6CN7)nc(OC6CCOCC6)nc45)cc3)nn2)cc1 (stereo not drawn)
cell line	setting	viability
LCLC-97TM1	30 nM	106% and 104% and 91.7% and 93.1%
BXPC-3	1 µM	140% and 80.2% and 90.5% and 88.6%
PK-59	0.1 µM	14.1% and 13.5% and 11.2% and 13.1%
GP2d	1 nM	61.2% and 59.6% and 52.4% and 55.6%
GP5d	300 pM	86.5% and 91.7% and 68.9% and 69.8%
HT-29	3 µM	77.1% and 68.9% and 79.3% and 71.8%
BXPC-3	10 nM	87.6% and 100% and 95% and 112%
SW-403	1 µM	9.25% and 10% and 11.2% and 12.7%
HT-29	3 nM	94.3% and 93.6% and 95.2% and 84.6%
PK-59	3 µM	2.04% and 2.77% and 1.61% and 1.5%

For quick reference, copied from above (set 4):
cell line	setting	viability
BXPC-3	1 µM	140% and 80.2% and 90.5% and 88.6%
PK-59	0.1 µM	14.1% and 13.5% and 11.2% and 13.1%
GP2d	1 nM	61.2% and 59.6% and 52.4% and 55.6%
GP5d	300 pM	86.5% and 91.7% and 68.9% and 69.8%
HT-29	3 µM	77.1% and 68.9% and 79.3% and 71.8%
BXPC-3	10 nM	87.6% and 100% and 95% and 112%
SW-403	1 µM	9.25% and 10% and 11.2% and 12.7%
HT-29	3 nM	94.3% and 93.6% and 95.2% and 84.6%
PK-59	3 µM	2.04% and 2.77% and 1.61% and 1.5%
